Measured values from different studies.
Compare with care: the assays were run in different laboratories. ± gives the spread as reported.
Sequence of UniProt P62942 (whole entry, looked up): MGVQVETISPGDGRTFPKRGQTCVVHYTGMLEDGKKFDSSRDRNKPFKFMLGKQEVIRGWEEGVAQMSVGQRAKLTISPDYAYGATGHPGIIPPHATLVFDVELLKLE
Sequence of UniProt P97612 (whole entry, looked up): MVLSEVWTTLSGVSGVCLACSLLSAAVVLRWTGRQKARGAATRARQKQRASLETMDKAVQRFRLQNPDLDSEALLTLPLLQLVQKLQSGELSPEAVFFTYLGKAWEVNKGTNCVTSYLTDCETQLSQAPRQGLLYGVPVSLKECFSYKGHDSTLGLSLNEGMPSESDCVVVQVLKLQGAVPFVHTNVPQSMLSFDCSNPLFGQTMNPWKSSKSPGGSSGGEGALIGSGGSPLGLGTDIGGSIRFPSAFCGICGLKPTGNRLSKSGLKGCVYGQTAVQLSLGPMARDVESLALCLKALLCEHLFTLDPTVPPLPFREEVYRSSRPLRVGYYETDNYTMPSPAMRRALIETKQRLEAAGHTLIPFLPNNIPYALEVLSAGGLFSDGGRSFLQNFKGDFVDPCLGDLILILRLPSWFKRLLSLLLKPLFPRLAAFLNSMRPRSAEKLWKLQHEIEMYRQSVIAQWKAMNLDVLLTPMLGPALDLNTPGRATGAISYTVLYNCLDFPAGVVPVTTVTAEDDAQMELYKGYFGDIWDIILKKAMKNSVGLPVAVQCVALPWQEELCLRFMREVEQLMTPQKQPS
Sequence of UniProt P30550 (whole entry, looked up): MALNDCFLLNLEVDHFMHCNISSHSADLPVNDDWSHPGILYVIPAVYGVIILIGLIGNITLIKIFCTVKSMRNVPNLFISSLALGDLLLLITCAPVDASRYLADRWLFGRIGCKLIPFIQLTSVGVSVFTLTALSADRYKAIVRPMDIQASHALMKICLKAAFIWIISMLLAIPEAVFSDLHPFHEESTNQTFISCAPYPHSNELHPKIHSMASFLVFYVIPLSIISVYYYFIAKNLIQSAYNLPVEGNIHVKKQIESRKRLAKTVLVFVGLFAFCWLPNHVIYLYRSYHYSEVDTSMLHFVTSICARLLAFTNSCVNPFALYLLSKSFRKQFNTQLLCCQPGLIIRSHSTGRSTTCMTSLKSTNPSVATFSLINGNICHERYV
Sequence of UniProt P14902 (whole entry, looked up): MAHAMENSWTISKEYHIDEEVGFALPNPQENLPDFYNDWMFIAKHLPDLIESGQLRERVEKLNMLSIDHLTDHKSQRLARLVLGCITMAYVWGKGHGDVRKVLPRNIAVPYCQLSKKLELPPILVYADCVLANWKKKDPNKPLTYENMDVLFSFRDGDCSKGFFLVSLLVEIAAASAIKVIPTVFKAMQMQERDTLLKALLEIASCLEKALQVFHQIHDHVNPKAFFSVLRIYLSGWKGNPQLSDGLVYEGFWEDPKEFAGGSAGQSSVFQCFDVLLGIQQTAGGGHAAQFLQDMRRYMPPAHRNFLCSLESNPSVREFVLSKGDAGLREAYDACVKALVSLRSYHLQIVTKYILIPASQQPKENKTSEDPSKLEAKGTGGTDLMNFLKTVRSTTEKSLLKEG
Sequence of UniProt P05804 (whole entry, looked up): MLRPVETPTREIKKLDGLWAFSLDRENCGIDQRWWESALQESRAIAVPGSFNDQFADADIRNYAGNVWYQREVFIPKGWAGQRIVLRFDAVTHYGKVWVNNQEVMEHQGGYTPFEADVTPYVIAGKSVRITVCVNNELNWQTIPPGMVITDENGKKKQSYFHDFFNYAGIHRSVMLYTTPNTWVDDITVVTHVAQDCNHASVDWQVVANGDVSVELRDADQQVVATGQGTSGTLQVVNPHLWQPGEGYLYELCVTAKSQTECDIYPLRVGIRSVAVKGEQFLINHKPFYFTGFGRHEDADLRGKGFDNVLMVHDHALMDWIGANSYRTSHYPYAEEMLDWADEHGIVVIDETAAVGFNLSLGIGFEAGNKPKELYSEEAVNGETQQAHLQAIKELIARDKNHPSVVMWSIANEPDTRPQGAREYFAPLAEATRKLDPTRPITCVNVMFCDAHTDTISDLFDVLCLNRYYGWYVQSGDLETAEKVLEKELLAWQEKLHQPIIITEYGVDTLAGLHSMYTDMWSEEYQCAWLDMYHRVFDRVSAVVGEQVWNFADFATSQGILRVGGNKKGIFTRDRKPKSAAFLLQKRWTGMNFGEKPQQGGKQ
Sequence of UniProt P03303 (whole entry, looked up): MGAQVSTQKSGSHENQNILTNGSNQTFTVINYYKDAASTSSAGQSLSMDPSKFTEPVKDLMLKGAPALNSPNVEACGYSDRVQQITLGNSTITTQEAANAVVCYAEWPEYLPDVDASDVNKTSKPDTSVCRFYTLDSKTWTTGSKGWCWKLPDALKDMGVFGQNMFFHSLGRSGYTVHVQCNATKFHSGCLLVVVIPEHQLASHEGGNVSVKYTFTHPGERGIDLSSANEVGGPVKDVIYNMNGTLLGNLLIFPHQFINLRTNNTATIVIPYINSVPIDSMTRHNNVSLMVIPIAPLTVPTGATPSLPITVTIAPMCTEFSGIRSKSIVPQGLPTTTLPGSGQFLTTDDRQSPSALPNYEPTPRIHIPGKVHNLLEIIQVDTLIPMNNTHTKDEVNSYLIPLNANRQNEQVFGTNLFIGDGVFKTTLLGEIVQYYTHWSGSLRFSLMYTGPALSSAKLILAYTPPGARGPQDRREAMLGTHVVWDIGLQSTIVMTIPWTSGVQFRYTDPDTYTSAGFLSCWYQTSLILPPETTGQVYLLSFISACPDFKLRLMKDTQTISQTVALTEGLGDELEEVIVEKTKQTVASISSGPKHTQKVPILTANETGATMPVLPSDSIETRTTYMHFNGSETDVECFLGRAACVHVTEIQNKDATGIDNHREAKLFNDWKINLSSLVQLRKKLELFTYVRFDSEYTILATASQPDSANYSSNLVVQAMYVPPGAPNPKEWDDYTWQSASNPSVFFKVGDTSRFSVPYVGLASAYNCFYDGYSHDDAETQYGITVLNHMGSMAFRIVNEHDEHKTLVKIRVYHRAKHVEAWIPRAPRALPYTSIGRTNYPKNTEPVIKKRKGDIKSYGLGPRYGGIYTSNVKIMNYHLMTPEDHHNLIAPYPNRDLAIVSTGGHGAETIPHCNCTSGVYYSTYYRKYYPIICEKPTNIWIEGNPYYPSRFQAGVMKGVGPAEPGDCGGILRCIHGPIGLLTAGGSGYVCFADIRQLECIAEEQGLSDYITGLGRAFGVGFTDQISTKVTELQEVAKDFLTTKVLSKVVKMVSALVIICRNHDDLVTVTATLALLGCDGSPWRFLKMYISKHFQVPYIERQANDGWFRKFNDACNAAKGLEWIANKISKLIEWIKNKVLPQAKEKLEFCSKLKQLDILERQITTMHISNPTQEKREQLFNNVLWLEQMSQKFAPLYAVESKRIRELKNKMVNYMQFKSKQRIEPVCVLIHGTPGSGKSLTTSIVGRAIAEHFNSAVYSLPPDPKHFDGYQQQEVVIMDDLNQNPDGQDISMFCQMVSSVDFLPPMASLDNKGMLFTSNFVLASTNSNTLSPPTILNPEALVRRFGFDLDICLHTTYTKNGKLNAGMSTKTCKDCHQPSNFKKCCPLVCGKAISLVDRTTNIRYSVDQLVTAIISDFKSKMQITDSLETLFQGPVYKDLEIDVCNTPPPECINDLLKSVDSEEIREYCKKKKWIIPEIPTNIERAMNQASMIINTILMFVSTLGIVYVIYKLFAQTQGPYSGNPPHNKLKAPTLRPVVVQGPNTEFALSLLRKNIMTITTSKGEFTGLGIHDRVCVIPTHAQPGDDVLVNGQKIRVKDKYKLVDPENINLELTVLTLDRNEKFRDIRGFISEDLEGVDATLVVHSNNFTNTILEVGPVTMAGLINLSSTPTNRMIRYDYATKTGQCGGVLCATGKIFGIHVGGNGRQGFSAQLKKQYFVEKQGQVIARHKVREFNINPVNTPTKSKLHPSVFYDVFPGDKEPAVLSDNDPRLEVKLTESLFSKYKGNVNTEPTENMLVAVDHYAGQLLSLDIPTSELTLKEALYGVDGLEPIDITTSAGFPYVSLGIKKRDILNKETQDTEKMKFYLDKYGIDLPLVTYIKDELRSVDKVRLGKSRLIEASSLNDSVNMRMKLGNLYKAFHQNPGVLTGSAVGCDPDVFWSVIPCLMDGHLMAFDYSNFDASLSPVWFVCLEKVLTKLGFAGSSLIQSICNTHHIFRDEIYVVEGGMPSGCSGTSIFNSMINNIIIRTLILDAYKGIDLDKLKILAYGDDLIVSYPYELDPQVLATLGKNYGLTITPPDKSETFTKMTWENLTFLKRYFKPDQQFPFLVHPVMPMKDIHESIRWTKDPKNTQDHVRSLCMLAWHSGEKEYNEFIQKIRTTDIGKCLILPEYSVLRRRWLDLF
Sequence of UniProt Q99808 (whole entry, looked up): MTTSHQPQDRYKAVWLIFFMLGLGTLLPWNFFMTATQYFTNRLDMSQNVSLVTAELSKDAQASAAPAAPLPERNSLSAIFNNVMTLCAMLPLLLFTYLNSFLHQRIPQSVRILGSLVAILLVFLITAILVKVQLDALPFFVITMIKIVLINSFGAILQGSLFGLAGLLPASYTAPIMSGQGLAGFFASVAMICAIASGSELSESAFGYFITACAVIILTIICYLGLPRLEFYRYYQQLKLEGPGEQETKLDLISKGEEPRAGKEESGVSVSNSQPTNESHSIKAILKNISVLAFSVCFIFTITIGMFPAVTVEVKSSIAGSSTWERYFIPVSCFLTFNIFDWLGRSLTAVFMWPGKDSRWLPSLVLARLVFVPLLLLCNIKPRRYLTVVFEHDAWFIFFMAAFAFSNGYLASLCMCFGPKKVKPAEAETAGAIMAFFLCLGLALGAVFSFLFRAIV
Sequence of UniProt P13346 (whole entry, unmodified, looked up): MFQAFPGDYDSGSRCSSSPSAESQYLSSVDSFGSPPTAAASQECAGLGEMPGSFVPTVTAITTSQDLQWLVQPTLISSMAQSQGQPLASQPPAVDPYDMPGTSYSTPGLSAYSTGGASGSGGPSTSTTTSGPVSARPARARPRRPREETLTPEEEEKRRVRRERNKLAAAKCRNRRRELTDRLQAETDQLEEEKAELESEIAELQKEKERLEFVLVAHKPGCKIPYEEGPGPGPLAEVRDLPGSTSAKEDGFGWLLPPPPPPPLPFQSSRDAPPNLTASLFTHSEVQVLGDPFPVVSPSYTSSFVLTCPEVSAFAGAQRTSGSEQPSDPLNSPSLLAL

SMILES	target	assay	test system	setting	IC50
CSCC[C@H](NC(=O)[C@H](Cc1ccccc1)NC(=O)[C@H](Cc1c[nH]cn1)NC(=O)CNC(=O)[C@@H](NC(=O)[C@H](C)NC(=O)[C@H](Cc1c[nH]c2ccccc12)NC(=O)[C@H](CCC(N)=O)NC(=O)[C@@H]1CCCN1C(=O)CNC(=O)CNC(=O)CNC(=O)[C@@H]1CCC(=O)N1)C(C)C)C(N)=O	GRPR (Homo sapiens, UniProt P30550)	ligand displacement in cells, radioligand	–	–	0.00068 µM
O=C(O)c1cc2ccccc2n1Cc1ccccc1	IDO1 (Homo sapiens, UniProt P14902)	inhibitor	–	–	> 500 µM
COC(=O)CC[C@@H]1NC(=O)[C@H](Cc2c[nH]c3ccccc23)NC(=O)[C@@H]2CC(=O)O[C@H](C)[C@H](NC(=O)[C@H](CCC(=O)O)NC(=O)[C@H](CO)NC(=O)[C@H](CCCNC(=N)N)NC(C)=O)C(=O)N[C@@H](CC(C)C)C(=O)N[C@@H](CCCCNC(=O)CC[C@@H](C(=O)N[C@@H](Cc3ccccc3)C(=O)O)NC1=O)C(=O)N[C@@H](Cc1ccc(O)cc1)C(=O)N1CCC[C@H]1C(=O)N[C@@H](CO)C(=O)N2	Chymotrypsinogen A (Bos taurus, UniProt P00766)	enzyme activity, inhibitor, fluorescence	–	–	1.5 µM
N=C(N)NCCC[C@H](NC(=O)[C@@H]1CCCN1C(=O)[C@H](N)Cc1ccccc1)C(=O)CCl	Cathepsin B (CTSB, Homo sapiens, UniProt P07858)	enzyme activity, inhibitor, fluorescence	–	–	0.402 µM
COc1ccc(N=Nc2cccc(NC(=O)CCCCCCC(=O)NO)c2)cc1	HDAC2 (Homo sapiens, UniProt Q92769)	enzyme activity, inhibitor	–	trans isomer	0.113 ± 0.02 µM
COc1ccc(C(=O)CCl)cc1	Fosb/Jund, ΔFosB isoform (Mus musculus, UniProt P13346+P15066)	ΔFOSB/JUND DNA binding, fluorescence polarization	–	15 min, added: TMR-cdk5 oligonucleotide	> 200 µM
Cc1cc(C(=O)COn2nnc3ccc(S(C)(=O)=O)cc32)c(C)n1C	Genome polyprotein, 3C protease (rhinovirus B14, UniProt P03303)	3C protease activity, SAMDI-MS	human rhinovirus	–	> 100 µM
CN1CCN(c2nnnc3c2sc2nc(N4CCOCC4)c4c(c23)CCCC4)CC1	Beta-glucuronidase (uidA, Escherichia coli, UniProt P05804)	enzyme activity, inhibitor, absorbance	–	pH 7.5	12.8 µM
COc1ccc(CC[C@H]2OC(=O)[C@@H]3CCCCN3C(=O)C(=O)C(C)(C)COC(=O)/C=C/CCN(C)C(=O)[C@H](CC(C)C)N(C)C(=O)[C@H]3CCCN3C(=O)[C@H](Cc3ccccc3)N(C)C(=O)[C@H](c3ccccc3)NC(=O)CCC(=O)Nc3cccc2c3)cc1OC	FKBP1A/SLC29A1 (Homo sapiens, UniProt P62942+Q99808)	thymidine uptake, inhibitor	PK-15 expressing hENT1	30 min, added: [3H]-thymidine	0.0033 µM
COC(=O)C=CCCC(NC(=O)c1ccncc1C(=O)O)C(=O)NC(C(=O)N1CC(=O)CC1C(=O)NC(C(=O)NC(C(N)=O)C1CCCCC1)C1CCCCC1)C(C)(C)C (centres unmarked)	Coagulation factor XIII A chain (Crab-eating macaque, UniProt A0A7N9D9X7)	isopeptidase activity, inhibitor	–	added: A101 substrate	0.015 ± 0.0001 µM
CC(=O)N[C@H]1CSC(=O)[C@H](Cc2ccccc2)NC(=O)[C@H](CC(C)C)NC(=O)[C@H](CO)NC(=O)[C@H](CO)NC1=O	accessory gene regulator protein C (Staphylococcus aureus, UniProt O33587)	–	–	–	0.0775 µM
O=C(O[C@@H]1Cc2c(O)cc(O)cc2O[C@H]1c1ccc(O)c(O)c1)c1cc(O)c(O)c(O)c1	mRNA cap guanine-N(7) methyltransferase, with RAM (RNMT, Homo sapiens, UniProt O43148)	N7-methyltransferase activity, inhibitor, Py-FLINT	–	RNMT-RAM complex, added: SAM 20 µM	1.87 ± 0.66 µM
O=C(NCCCCCCCn1ccc2ccccc21)Oc1ccccc1	Faah (Rattus norvegicus, UniProt P97612)	–	rat brain homogenate	60 min, 37 °C	0.051 µM
CC(C)[C@H](NC(=O)c1ccc(CCc2nc3c(c(=O)[nH]2)CCC3)cc1)C(=O)NC1CNC1	MMP9 (Homo sapiens, UniProt P14780)	enzyme activity, inhibitor	–	–	> 5 µM

A few entries again:
SMILES	target	assay	test system	setting	IC50
COC(=O)C=CCCC(NC(=O)c1ccncc1C(=O)O)C(=O)NC(C(=O)N1CC(=O)CC1C(=O)NC(C(=O)NC(C(N)=O)C1CCCCC1)C1CCCCC1)C(C)(C)C (centres unmarked)	Coagulation factor XIII A chain (Crab-eating macaque, UniProt A0A7N9D9X7)	isopeptidase activity, inhibitor	–	added: A101 substrate	0.015 ± 0.0001 µM
COC(=O)CC[C@@H]1NC(=O)[C@H](Cc2c[nH]c3ccccc23)NC(=O)[C@@H]2CC(=O)O[C@H](C)[C@H](NC(=O)[C@H](CCC(=O)O)NC(=O)[C@H](CO)NC(=O)[C@H](CCCNC(=N)N)NC(C)=O)C(=O)N[C@@H](CC(C)C)C(=O)N[C@@H](CCCCNC(=O)CC[C@@H](C(=O)N[C@@H](Cc3ccccc3)C(=O)O)NC1=O)C(=O)N[C@@H](Cc1ccc(O)cc1)C(=O)N1CCC[C@H]1C(=O)N[C@@H](CO)C(=O)N2	Chymotrypsinogen A (Bos taurus, UniProt P00766)	enzyme activity, inhibitor, fluorescence	–	–	1.5 µM
